# Measured values of several laboratories.
# Every numbered part comes from another study and shows a few of its results, in no order. Changes are numbered by the printed parent chain.

# Sample 1
# Target: ABI1, truncated, D143A, DHFR fusion (Arabidopsis thaliana)
# Technique: DHFR PCA, deep sequencing
# Matrix: yeast
# Notes: methotrexate growth selection, single substitutions
# Together with: (+)-ABA 200 µM
# Relative to: wild-type fitted maximum
# Reading: higher = stronger binding
# Parent: PYL1, truncated, DHFR fusion (Arabidopsis thaliana); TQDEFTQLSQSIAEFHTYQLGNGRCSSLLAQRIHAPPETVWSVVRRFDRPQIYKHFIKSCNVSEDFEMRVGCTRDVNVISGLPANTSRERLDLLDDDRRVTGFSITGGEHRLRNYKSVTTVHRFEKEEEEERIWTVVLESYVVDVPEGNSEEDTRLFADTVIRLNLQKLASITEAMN; partner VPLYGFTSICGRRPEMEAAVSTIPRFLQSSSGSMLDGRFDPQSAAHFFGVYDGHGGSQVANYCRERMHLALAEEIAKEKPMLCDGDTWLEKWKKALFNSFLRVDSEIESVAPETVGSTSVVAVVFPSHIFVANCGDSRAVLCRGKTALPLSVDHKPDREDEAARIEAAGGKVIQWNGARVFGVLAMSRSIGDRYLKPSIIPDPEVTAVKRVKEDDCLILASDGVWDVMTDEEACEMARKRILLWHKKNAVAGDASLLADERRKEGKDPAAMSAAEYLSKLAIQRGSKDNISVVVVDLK
Variant,relative binding score [%]
A170Y,8.85
Q7I,99.9
E130I,111
R49I,80.8
P36T,97.9
E38V,67.2
A158Y,2.94
R88H,102
E151T,93.4
V142G,71.4
V137C,70
K58H,88.7
V44L,95.8
F124P,75.6
V76F,18.8
Y115Q,-7.84
T119F,26.8
D96W,25.8

# Sample 2
# Target: RING finger protein unkempt homolog, zinc fingers 1-6, SBP tag (UNK, Homo sapiens, UniProt Q9C0B0, residues 30-357)
# Sequence of UniProt Q9C0B0 (30-357, looked up): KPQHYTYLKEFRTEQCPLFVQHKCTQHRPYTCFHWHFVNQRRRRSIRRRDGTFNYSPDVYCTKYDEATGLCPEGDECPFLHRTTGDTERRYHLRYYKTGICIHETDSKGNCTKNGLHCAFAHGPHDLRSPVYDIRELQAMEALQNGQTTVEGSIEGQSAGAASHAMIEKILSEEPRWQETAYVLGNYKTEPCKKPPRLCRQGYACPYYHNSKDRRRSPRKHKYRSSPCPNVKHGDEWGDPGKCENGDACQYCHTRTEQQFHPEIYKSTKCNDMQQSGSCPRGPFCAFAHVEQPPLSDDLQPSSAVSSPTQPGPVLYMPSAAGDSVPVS
# Technique: RNA Bind-n-Seq
# Molecule type: RNA
# Matrix: in vitro
# Concentration: 100 nM
# Notes: RNA with constant flanks, vertebrate orthologous sites, ends assumed
# Relative to: input RNA pool
# Reading: higher = stronger binding
Sequence,bound/input enrichment
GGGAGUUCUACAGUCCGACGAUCGAUGUAUUUAUACUGGCCAAACAUUUUUGACUUGUAUUUCUUUGUCCUUUUUUGGUAGUCCUCGUUGUUACUCGCACCAUUUUUAUGUCUCCUUCACUGAAGGGCUAGAGUUUUAACUUUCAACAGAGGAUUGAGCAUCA,0.456 ratio
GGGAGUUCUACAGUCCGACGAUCACUCCCUCAACUUCAGUUUUUCAGGUUGUAGCUGAUCCAUCUUUCUUCUUCCCCCUCCUCUCACUGUUCCUUUCCUUUCCUUUCUGUCUGCCCAACUUCAGACACAUGAGUUCUUCCCCUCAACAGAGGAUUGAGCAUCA,1.05 ratio
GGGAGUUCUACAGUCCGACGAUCUAUCAGUAGAAUUACAUAAUACUAAAGUUGCCGUUGAAAGAAUAUCCAAGUAUGUGUUGGUAGUUACUAAAAGAAUUAUAGCUGUUAUUGCCUUGUAUUUAUAGUCCUUGUUUCAGGUUUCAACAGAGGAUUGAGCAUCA,1.03 ratio
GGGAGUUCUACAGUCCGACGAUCGCAUUUGCCGCUAUCACCAAAAGCAAACUUCCACUUUUCAAAUUUCAUUCCGAGCCGUUUUAGUGUUUCCUAUUCCCUACCCUUCCCAUGACUUUCUCUGAUGAAAUAUACUGUUCUCCUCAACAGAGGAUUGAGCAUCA,1.47 ratio
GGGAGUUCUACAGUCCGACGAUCCUUUGGAAGACUGUAAAAACCUUUUGUUCAUAUUGGUAAUUAUGGACCGUGCCACCAAAACUGAGUUUGUGGCUUAUUACAUUAAGAUAAUUUUUGUUGGUUAUUUCAUAAGUACUUGCUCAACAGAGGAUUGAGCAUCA,0.147 ratio
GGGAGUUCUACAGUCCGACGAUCCUGUUGUUAAGCACUGUGUUCCAGACCGUGUCUGACUUUAGUGUAACCUAGGAGAUUUUAUAGUUUUAUUUUAAUGAAGCCCUGAUUGGUGCAGAGCAGCGGGAAAAGCAGUGUCUUUCACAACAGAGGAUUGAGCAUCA,2.91 ratio
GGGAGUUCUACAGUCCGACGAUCUCCCAGCACUUUGGUGAAAAGUGUGGAUUGGUUGCUUGUAUUUUCCUUAUUCUUUCUAGUUAGUUUUAUUAUGUAUGCUACUAUUCGAACUGAAAGUAUUCGAUGGCUAAUUCCAGGACACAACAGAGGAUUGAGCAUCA,0.611 ratio
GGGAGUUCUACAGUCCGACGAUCGUCAUCCGAUUGGAUGAAGACCGUCCCGAGUUACAACCAAACCAACAGCUCCAUGGACUUCAGAAAUUACAUGCUGAGAGAUGAGAAUCUGGAACCACUGCCCCAAAACUGGGAGAUGGCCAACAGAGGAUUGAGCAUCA,0.243 ratio
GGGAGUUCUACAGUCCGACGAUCUUUUAUUGAUCAGGUCUGUAAAUGUGUACUAAAAAAAUCAGAGUUUAUUUAUAAACAAGAGAGUUUAUUUAAAGUGAAGGUCUUUUCUCAUCAAUAUUGUGGUAUACAUUAAUUCCAUUUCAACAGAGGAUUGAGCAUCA,0.263 ratio
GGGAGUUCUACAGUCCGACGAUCCCUCAUUUUCUCACUCUGUAUGAGUGGGCAAUUAUUUUUUUGUUUUUUUUACAUUUUGUAUAGAAACAAAUUCAUUUAAACAAACUUAUUAUUAUUAUUUUUUACAAAAUAUAUCUAUAGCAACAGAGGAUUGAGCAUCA,0.883 ratio
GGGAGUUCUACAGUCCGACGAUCCAUGCACAUGCCGCUGUCACCAAGAGCAAACAUGGUCUCCAAACUCUCCAAGUAGCCUUUUUAGUAUUCUCCCUCUCUUUCCUUCUGUUUCUCCAGUGCUUUAAAUGAUUAGAAGUCCUGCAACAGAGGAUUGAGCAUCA,2.95 ratio

# Sample 3
# Target: NFE2, bZIP domain (human)
# Technique: DHFR protein complementation
# Matrix: yeast
# Notes: single substitutions, most at no-binding floor
# Relative to: wild-type JUN-FOS pair
# Reading: higher = stronger binding
# Parent: JUN, bZIP domain (human); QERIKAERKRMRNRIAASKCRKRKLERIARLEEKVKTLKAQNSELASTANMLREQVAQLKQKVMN; partner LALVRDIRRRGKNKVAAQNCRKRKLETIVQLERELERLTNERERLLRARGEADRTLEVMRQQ
Variant,binding fitness [natural log]
Q55M,-1.53
S47A,-1.31
R53M,-1.52
Q55R,-1.5
E54I,-1.45
E44H,-1.38
R53Y,-1.4
K36N,-1.39
Q55W,-1.46
L31V,-1.45
T37I,-1.45
E33V,-1.43
E54K,-1.19
A40P,-1.52
L38E,-1.42

# Sample 4
# Target: CCND1, cyclin fold, Cln2 fusion (human)
# Technique: yeast growth competition, sequencing
# Matrix: yeast
# Notes: strong parent motif
# Relative to: not given
# Reading: higher = stronger binding
# Parent: INSM1 docking peptide (human); PKAIRKLHFEDEV
Variant,normalised enrichment score
K2C,5.07
A3G,1.81
L7K,0.141
E12D,5.13
K6T,2.26
E12S,4.09
H8F,4.79
K2N,4.33
E10Y,2.55
H8N,5.61
A3T,2.11
L7T,0.196
L7M,0.65
A3V,2.45
E12N,3.84
E10P,5.28
R5W,0.538
I4W,0.28
I4Y,1.02
E12P,4.07
R5A,1.15
A3I,1.05
D11E,4.5
H8Y,4.83
H8Q,5.36

# Sample 5
# Target: Histone acetyltransferase KAT6A, winged helix 2, GST fusion (KAT6A, Homo sapiens, UniProt Q92794, residues 85-181)
# Technique: protein binding microarray
# Molecule type: double-stranded DNA, one strand shown
# Matrix: in vitro
# Concentration: not given
# Notes: 8-mer, flanks averaged, mean of 2 arrays, mostly near background
# Relative to: not given
# Reading: higher = stronger binding
# Target sequence (chain): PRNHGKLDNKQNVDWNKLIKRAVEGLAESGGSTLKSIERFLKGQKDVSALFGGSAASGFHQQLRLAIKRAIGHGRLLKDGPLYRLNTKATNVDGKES
Sequence,E-score
ATCATGTG,-0.191
CCGATCAA,0.0972
ACAAAGTA,0.115
AGTTCACA,-0.103
AACACTAT,0.0637
ATAGAAGG,-0.147
TCAGCTAA,0.00629
CTCGGTTC,-0.078
GCTCTCTA,0.0248
CGTCCGAA,0.0808
AGGCGGCC,0.167
AGACTGCG,0.0709
AGTGATCA,-0.0749
GATGGCCC,0.0553
ATCAATGA,0.0681
AGAATGCC,0.0662
ATCGCCTG,0.0572
GACATTCA,-0.017
ACTAGAGA,-0.0807
AAAAGACT,-0.286
GATTACGA,-0.00712
GGTACCAC,0.11
GCTGTCAC,-0.0106
GCTTAGCC,0.0692
ACAGACCT,-0.0975

# Single results of other studies
Substance,target,assay,test system,setting,how to read,endpoint,value
"PhoQ, residues 284 288 289 292 302 303 ASASEQ","PhoP, residues 12 14 15 18 19 NQAHL (Escherichia coli, UniProt P23836)","Sort-seq, measured: YFP reporter",E. coli,"PhoQ-PhoP variant library, together with: 10 µM Mg2+","relative to: high Mg2+ state, higher = stronger signaling",fold induction,1.68

# A few entries again (sample 5):
Sequence,E-score
GACATTCA,-0.017
ATCAATGA,0.0681
CGTCCGAA,0.0808
ACAAAGTA,0.115
AGACTGCG,0.0709
